Assay results pooled from the literature.
Each numbered part is a random draw from the data of one study; scales do not carry over between parts. Substitutions count along the parent as printed.

Sample 1 — Variant: E151G; technique: DHFR PCA, deep sequencing; sample: yeast; baseline: wild-type fitted maximum; direction: higher = stronger binding
Target: ABI1, truncated, D143A, DHFR fusion (Arabidopsis thaliana)
Notes: methotrexate growth selection, single substitutions
Starting sequence: PYL1, truncated, DHFR fusion (Arabidopsis thaliana); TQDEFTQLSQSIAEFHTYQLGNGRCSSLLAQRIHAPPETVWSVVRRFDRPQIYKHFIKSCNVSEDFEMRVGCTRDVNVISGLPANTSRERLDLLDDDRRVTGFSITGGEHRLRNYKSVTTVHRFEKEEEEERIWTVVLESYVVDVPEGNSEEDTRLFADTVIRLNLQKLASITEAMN
| conditions | relative binding score |
| --- | --- |
| added: (+)-ABA 1.4 µM | 19.1% |
| added: (+)-ABA 0.11 µM | 6.37% |
| added: (+)-ABA 0 µM | 5.3% |
| added: (+)-ABA 17 µM | 68.2% |

Sample 2 — technique: RNA Bind-n-Seq; molecule type: RNA; sample: in vitro; concentration: 365 nM; baseline: no-protein control; direction: higher = stronger binding
Target: RNA binding protein fox-1 homolog 2, RRM domain, GST-SBP tag (RBFOX2, Homo sapiens, UniProt O43251-10, residues 100-194)
Notes: natural RNA segment, single round, ends assumed
| Strand | RBNS enrichment (R) |
| --- | --- |
| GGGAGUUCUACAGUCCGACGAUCAGGGCCACAUGGGAGGCUCACCCCCUUCUCCAUCCACAUGGGAGCCGGGUCUGCCUCUUCUGGGAGGGCAGCAGGGCUACCCUGAGCUGAGGCAGCAGUGUGAGGCCAGGUGGAAUUCUCGGGUGCCAA | 0.379 |
| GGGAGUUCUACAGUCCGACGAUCUGUAUCCCAGCCAGCCUGGGUCUCACUGUAUAGCUGGAGAGACUUUCGAAAUUGUAUCCUUCUGACUCUGCUUCCUGGGUGCUGAAAUUAAAGGCAUGUGCCACUAUGCAUGGAAUUCUCGGGUGCCAA | 3.8 |
| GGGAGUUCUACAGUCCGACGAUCUUCAAUGAAUUUCUGCCUAUGAGGCAUCUGGCCCCUGGUAGCCAGCUCUCCAGAAUUACUUGUAGGUAAUUCCUCUCUUCAUGUUCUAAUAAACUUCUACAUUAUCACCAUGGAAUUCUCGGGUGCCAA | 0.391 |
| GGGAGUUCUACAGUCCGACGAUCCAUAUUGCUAACCUCACCAAAAGGUUUCGGGAACUGGAGGAAGUAUUAAUGUACAACUCACCACUUCAUGCCAUAGGAGGCUGAAGUUGACGUUGCCUUUUAAGCCUUUUUGGAAUUCUCGGGUGCCAA | 0.4 |
| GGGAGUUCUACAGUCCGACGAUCUGAGUUAGGAAAAUUACAUUCCUGGUUCUGUAUUGAGGAGAAGGAUGUAUAAAGCAACAUGAAACAUUAGCCCUCCUUUUAUUUUAAAGACUAAUGUUAAUUGUUCUUAAUGGAAUUCUCGGGUGCCAA | 0.363 |
| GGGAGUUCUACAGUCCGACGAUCCACAGUGUGAACCAACUCAGACUUUGAGAGAAAAAGAAUGCAGGAGUGGAAUAACCAAGUCAAAAACCAUGUCAAAACUAUCCUCUGGGGGGUGCUGAGGGUGCUAUGGAUGGAAUUCUCGGGUGCCAA | 4.11 |
| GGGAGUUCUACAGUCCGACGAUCUUAGGAUAAUGGUGGACAUUUCAGUGCAUGUUUAGCUAAUGAACUUAGUUUUCUUUGCCCUUUCCAUGUUGUAGGCUACAUACAUCUCCAUGUUCAUUCUCAUGUUUUUUUGGAAUUCUCGGGUGCCAA | 1.14 |
| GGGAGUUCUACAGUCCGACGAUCUUUUGUUGCACUGAAGUUUGAUAAAUAGUGUUAUUGAGAGAGAUGUGUAAUUUUUCUGUAUAGACAGGAGAAGAAAGAACUAUCUUCAUCUGAGAGAGGCUAAAAUGUUUUGGAAUUCUCGGGUGCCAA | 0.419 |
| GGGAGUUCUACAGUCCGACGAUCUCGUUUCUGGGAAGAGAAUCAAUACCUGUUAGAGCCAGAAUGCUCCAAGUCUUUUAGCUUGUUCAUUUUGUAAUGAUUCUAAAAUAAUUCCAAAGAUAUAGCAGCUCAUAUGGAAUUCUCGGGUGCCAA | 0.495 |

Sample 3 — target: CCNB2, cyclin fold, Cln2 fusion (human); technique: yeast growth competition, sequencing; sample: yeast; notes: weak parent motif; baseline: not given; direction: higher = stronger binding
Starting sequence: E2F1 docking peptide (human); PPVKRRLDLETDH; partner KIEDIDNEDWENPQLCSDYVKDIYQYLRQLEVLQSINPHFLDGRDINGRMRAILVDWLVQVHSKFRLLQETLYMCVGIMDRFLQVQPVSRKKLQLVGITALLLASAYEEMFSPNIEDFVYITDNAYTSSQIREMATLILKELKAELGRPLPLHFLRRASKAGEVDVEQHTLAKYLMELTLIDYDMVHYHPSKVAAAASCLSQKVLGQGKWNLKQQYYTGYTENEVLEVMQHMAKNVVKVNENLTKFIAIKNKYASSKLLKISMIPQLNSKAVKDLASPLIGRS
| Variant | normalised enrichment score |
| --- | --- |
| P2I | -0.0324 |
| D12I | 0.0476 |
| H13C | 0.324 |
| R6G | -0.0322 |
| P1V | -0.0801 |
| L7A | 0.0385 |
| R6D | -0.586 |

Single results of other studies
| Substance | target | test | test system | conditions | how to read | measurement | result |
| --- | --- | --- | --- | --- | --- | --- | --- |
| PhoQ, residues 284 288 289 292 302 303 AQGLTV | PhoP, residues 12 14 15 18 19 IQSYL (Escherichia coli, UniProt P23836) | Sort-seq, measured: YFP reporter | E. coli | PhoQ-PhoP variant library, added: 10 µM Mg2+ | baseline: high Mg2+ state, higher = stronger signaling | fold induction | 11.8 |

A few entries again (sample 1):
| conditions | relative binding score |
| --- | --- |
| added: (+)-ABA 17 µM | 68.2% |
